Assay results of several laboratories.
Every numbered part comes from another study and shows a few of its results, in no order.

Series 1 — method: universal PBM; form: double-stranded DNA, one strand shown; medium: in vitro; concentration: not given; reading: higher = stronger binding; endpoint: E-score
Target: Sal-like protein 4, full length isoform B (SALL4, Homo sapiens, UniProt Q9UJQ4-2, residues 1-616)
Notes: 8-mer, flanks averaged, mean of replicates
Residues (chain): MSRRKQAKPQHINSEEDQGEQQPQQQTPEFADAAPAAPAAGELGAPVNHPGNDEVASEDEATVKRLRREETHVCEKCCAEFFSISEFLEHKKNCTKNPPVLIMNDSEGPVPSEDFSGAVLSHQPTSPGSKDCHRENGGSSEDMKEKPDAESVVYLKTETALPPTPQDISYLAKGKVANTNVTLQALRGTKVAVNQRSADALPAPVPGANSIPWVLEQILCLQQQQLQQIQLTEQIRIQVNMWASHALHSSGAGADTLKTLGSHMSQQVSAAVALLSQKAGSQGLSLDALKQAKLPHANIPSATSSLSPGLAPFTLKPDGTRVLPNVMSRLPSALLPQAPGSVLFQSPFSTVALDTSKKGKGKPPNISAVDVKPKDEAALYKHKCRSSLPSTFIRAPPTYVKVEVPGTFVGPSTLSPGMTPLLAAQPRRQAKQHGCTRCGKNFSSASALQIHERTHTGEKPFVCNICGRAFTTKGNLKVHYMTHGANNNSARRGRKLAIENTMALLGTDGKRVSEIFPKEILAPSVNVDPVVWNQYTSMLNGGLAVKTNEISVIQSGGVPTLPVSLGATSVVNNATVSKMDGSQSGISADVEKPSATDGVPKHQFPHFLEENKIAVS
AACCTGGT: -0.121
AGTCCGAT: 0.0203
TAACAATA: 0.422
AGTGGATC: -0.0713
ACACGTCA: -0.0172
AGGCGGAT: -0.0713
CATCGACA: -0.133
GGAGTCCC: -0.374
AAGTATTA: 0.312
GCTGTGAA: 0.0138
GCATGCCC: -0.0984
GAGCTTAA: 0.0144
AGGTCAAA: 0.0174
ATAGATTA: 0.33
GTTCCTCA: -0.05
ACCACGGG: -0.27
CAAGGACG: -0.204
CATGATCG: 0.114
CGATTTGC: -0.0687
CATGTGAG: 0.024
CCGTAAGC: -0.112

Series 2 — method: protein-binding microarray; form: double-stranded DNA, one strand shown; medium: in vitro; concentration: 0.8 µM; notes: whole 60-bp probe, no competitor; reading: higher = stronger binding; endpoint: fluorescence intensity; all sequences stand within: … GTCTTGATTCGCTTGACGCTGCTG
Target: Centromere-binding protein 1, full length, N-terminal tag (CBF1, Saccharomyces cerevisiae, UniProt P17106, residues 1-351)
Sequence of UniProt P17106 (whole entry, looked up): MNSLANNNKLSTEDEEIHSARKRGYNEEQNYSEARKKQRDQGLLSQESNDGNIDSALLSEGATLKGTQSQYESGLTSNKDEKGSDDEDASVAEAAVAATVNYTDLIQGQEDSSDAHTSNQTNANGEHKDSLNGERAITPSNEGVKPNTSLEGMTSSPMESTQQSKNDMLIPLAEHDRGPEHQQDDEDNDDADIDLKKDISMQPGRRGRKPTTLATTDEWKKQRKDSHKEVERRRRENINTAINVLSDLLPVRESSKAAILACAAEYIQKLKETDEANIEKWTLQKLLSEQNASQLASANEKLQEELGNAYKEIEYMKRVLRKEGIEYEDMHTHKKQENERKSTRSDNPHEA
GAACTCGGATAAAATTATCTGATGACTGTCGAATAG: 539 a.u.
CTACTCAAATAGAGTCGGGTGGAATGAAAAAAATTC: 546 a.u.
GAAAGGCGGGTTTGTGAGGTGAAAAAAAATATATAG: 587 a.u.
CTAGAGATAGCTGGTCATCACAATAGATCAGCCTTC: 489 a.u.
GAATTTTATCTAAATCATATGAGGAACGCTAGGTAG: 570 a.u.
CTAACTCTCACAGCTGATGTGATCCGAAGAAAATTC: 635 a.u.
TGTACGAAGCTATGGCGCGTGTTTATAGTAGTTAGG: 575 a.u.
CCTAACTACTATAATCACGTGATATAGCTTCGTACA: 32900 a.u.
CTACACTAACGAAGTGACATCATGGTAAATTCATTC: 546 a.u.
CTAGCAGTCTAAAAACACACGTGTATGTTTTTTTTC: 5640 a.u.
CTAACACACCGCGCACACGTGCTTTATTTCTTTTTC: 4650 a.u.
GAAATCGCAACTTTTATCGTGACCTACGACCAGTAG: 640 a.u.
CTACGGGGAACCTCCCACGTTCACAACCGCGCCTTC: 480 a.u.
CTATATTGTTGGCAATTCGTGGTGGAGACTTAGTTC: 565 a.u.
CCTAACTACTATAATCATCAGTCATAGCTTCGTACA: 543 a.u.
GAAATGCTTTATTGACACGTGAGAAGGGAAACTTAG: 4270 a.u.
GAACCAATTGTTAATCACACCACCGATAGGCAATAG: 1310 a.u.
CTATGGAACCATGTACACATGATCCTTTTACGGTTC: 1260 a.u.
GAATGTATCTGTGCCCATGTGATCTGTACCTTTTAG: 3100 a.u.
CTACATGAGGATTAGGCCGTGATCTTCGCGCTCTTC: 543 a.u.
TGTACGAAGCTATAGCACGTTTTTATAGTAGTTAGG: 698 a.u.
CTAAAAGTTGAACGTGGTGAGTCTTTAACAAAATTC: 570 a.u.
CTACTGACACTTCCCCACGATATTTATCATTTTTTC: 504 a.u.
CTAACCCTGCTTTCACGCGTGCTCCTACCATTTTTC: 588 a.u.
GAAATTCATACGCATCTCATGATGAGTCGAGCGTAG: 525 a.u.

Series 3 — method: RNA Bind-n-Seq; form: RNA; medium: in vitro; concentration: 1 µM; notes: whole 134-nt RNA, ends assumed; with: 150 mM KCl; reference: input library; reading: higher = stronger binding; endpoint: log2 enrichment
Target: Ras GTPase-activating protein-binding protein 1, C-terminal RGG region (G3BP1, Homo sapiens, UniProt Q13283)
Sequence of UniProt Q13283 (whole entry, looked up): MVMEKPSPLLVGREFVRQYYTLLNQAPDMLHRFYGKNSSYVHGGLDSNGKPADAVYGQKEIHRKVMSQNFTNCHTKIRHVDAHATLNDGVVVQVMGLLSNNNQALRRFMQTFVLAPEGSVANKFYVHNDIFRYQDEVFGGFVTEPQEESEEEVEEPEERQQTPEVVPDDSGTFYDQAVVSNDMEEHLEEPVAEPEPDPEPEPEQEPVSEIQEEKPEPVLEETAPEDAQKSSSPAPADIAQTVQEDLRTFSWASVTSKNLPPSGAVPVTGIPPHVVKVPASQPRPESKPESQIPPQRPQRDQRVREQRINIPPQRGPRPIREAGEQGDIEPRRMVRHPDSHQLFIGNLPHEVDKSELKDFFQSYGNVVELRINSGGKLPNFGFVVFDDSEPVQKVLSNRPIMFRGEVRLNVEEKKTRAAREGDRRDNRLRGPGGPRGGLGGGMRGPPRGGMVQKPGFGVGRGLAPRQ
All sequences stand within: GGGAGUUCUACAGUCCGACGAUC … UGGAAUUCUCGGGUGUCAAGG
GUCCUGUGCUACACAUCGUAUGUACCGAAUCGGGAAAAAGGGUUUGGGAAAAAAAGGGAAAGUAUUAUGUUACGCCGUUCGGAUCUGCAC: -0.938
UCAAGUCCUGUGCUACACAUCGUAUGUACCGAAUCGGAAAAAGGAAAGGUUUGGAAAGUAUUAUGUUACGCCGUUCGGAUCUGCACUUCC: -1.47
GCAGGAAGUAAAAACAAAUGGAAAUGCUUCGGAUAGUGGCAGGGGUGGGGGGUGCUAAGGAAAGGGUGGGAUGGGAGUGGGUAAAGAGUU: 0.596
GUCCUGUGCUACACAUCGUAUGUACCGAAUCGGGGAAAAAAAGGGGAAAGGGGUGGGGAAAGUAUUAUGUUACGCCGUUCGGAUCUGCAC: 2
UCUGAGGUCACCAAGCCUCCUCCUUGCUUGGAGAACUCCUCGCCUCCCUCCAGGAUUCCGGAGCCUGAAUCCCCAGCGAAGCCAAACGUC: -0.247
UCCUGUGCUACACAUCGUAUGUACCGAAUCGGGCCCCCCGGCCCCCCGGGCCCCCCGGGAAAGUAUUAUGUUACGCCGUUCGGAUCUGCA: -1.13
UUUAAUGUCUGCGGCACAAUGCCUGUCUGUGGGACCAUCCUGGGAAAACCUGCUUCUGGCUGUGAGGCAGAAACCCAAACUGAAGAGCUC: 0.826
AGUCCUGUGCUACACAUCGUAUGUACCGAAUCGGGCCCCCGGCCCCCGGCCCCCGGGGAAAGUAUUAUGUUACGCCGUUCGGAUCUGCAC: -2.3
CUGUGCUACACAUCGUAUGUACCGAAUCGGGGAAAAAAAGGGAAAAAAAGGAAAAAAAGGGAAAGUAUUAUGUUACGCCGUUCGGAUCUG: -1.65
CAAGUCCUGUGCUACACAUCGUAUGUACCGAAUCGGGGAGGGGAAAGGGGAGGGGAAAGUAUUAUGUUACGCCGUUCGGAUCUGCACUUC: 3.31
CCUCAAGUCCUGUGCUACACAUCGUAUGUACCGAAUCGGGGUGGUGGUGGGGAAAGUAUUAUGUUACGCCGUUCGGAUCUGCACUUCCAG: -0.213
CUGUGCUACACAUCGUAUGUACCGAAUCGGGGUUUUUUUGGUUUUUUUGGUUUUUUUGGGGAAAGUAUUAUGUUACGCCGUUCGGAUCUG: -1.61
UGGCCCUGGUGGCAUGCGGGGAGGAAGAGGUGGCCUCAUGGAUCGUGGUGGUCCCGGUGGAAUGUUCAGAGGUGGCCGUGGUGGAGACAU: 3.4
CCUCAAGUCCUGUGCUACACAUCGUAUGUACCGAAUCGGGUGGGGUGGUGGGGAAAGUAUUAUGUUACGCCGUUCGGAUCUGCACUUCCA: 0.875

Series 4 — method: protein binding microarray; form: double-stranded DNA, one strand shown; medium: in vitro; concentration: not given; reference: not given; reading: higher = stronger binding; endpoint: E-score
Target: Histone acetyltransferase KAT6A, both winged helices, GST fusion (KAT6A, Homo sapiens, UniProt Q92794, residues 1-181)
Notes: 8-mer, flanks averaged, mean of 2 arrays, mostly near background
Construct (chain): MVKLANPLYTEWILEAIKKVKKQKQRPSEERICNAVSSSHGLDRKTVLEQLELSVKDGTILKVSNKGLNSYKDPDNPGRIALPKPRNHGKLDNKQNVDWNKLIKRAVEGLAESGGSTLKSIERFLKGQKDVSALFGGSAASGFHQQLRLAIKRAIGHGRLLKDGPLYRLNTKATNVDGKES
AGCGTGCA: 0.0786
CCGCAGAC: 0.165
AAACATTT: -0.025
CGCTAGAA: 0.0742
ACCTAGCC: -0.203
ATGCGCCC: 0.253
GGTTTCAA: 0.0877
AGCCAGAC: -0.0784
TATACGAA: -0.0266
CCTAGTCG: 0.0457
AACTGCCT: -0.212
GGTTCAAA: 0.15
AGAGCAGA: -0.15
ATGCCCAC: -0.201
CTGGCCCC: -0.231
CAACTTCG: -0.0327
ATTGGTTC: -0.0425
CTGAGAAG: -0.174
CTGTAAGA: -0.0705
GCCTACAA: -0.07
ATTATGTG: 0.0408
CATACATG: -0.0532
AGCGACCG: 0.203
AAGTAAGT: -0.157
CTTGATCC: -0.0967

Series 5 — method: RNA Bind-n-Seq; form: RNA; medium: in vitro; concentration: 365 nM; reference: no-protein control; reading: higher = stronger binding; endpoint: RBNS enrichment (R)
Target: RNA binding protein fox-1 homolog 2, RRM domain, GST-SBP tag (RBFOX2, Homo sapiens, UniProt O43251-10, residues 100-194)
Notes: natural RNA segment, single round, ends assumed
All sequences stand within: GGGAGUUCUACAGUCCGACGAUC … UGGAAUUCUCGGGUGCCAA
Target sequence (chain): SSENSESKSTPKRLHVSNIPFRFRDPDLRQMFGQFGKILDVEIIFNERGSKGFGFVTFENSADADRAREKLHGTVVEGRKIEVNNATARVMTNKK
UUUGAAAGUUUCCAUUUUUUAAAGUUACCCUCGUUUUCAAAGGUAUUUUCUAAACAGAUCUUUAAUGGACUAUUUAAACCGAAUUUAAGGAAUUCACACACGACAGUUGA: 0.715
UGCUGCAGGCCAAGCUGGGUGUGGUAUUUAGGGCAGCUCAGCAGGGGGAACUUGUCCCCAUGGUCAGAGGAGACCCAGCUGUCCUGCACCCCCUUGCAGAUGAGUAUCAC: 2.66
AUUUGGGAAUUGAAUGUGGCCUCAGAUUUCUUCUAGUACUUGUUUUCGAUACAUAAUUAUGGUUUCUGUAUAAGAAGGUAUUGGUUAAGUAUCACGUUUUCAGCCAUGUU: 1.36
UGAAUAACUUCCCAGACACUUAUCUCCAGGGCAGGGUGCCUUCCAGUAGCCAAGGGAAGCCUCCAGAGAGCACAGAUGUGAACCCUCAGCAGCAGGCAUCACCCCCCAGU: 0.501
UCUCUUUGACCCGUUCUGGUCUAUUGUGUAAAUAUUUAUUUAGACUAUUUUGAUAAUACAUAUUAUUUACCCCACUGUAACAUCCUGUAAACUAAAUGCGUUUUUAAGCA: 1.06
UGGAACUAUACAGAUAGGUAAAGAGUUCCAAGUUCGUCCAGCCCAUGUGCAAAGUCAACAGUAUUUGCCUUAAGAUUUCAUAUAUAUAUAUUUUUUUGCAUUGACUGCUG: 0.693
AAAUUGAACCCAUUAAGAAUUAAUGCUUAUCAUUAUGGAGAGAUUAUCCAUUAACUUUCAUGGCUGACUUCUGUCUAGGCAUCAUAGUUUGCUUCAGAAUAGAUCUUUAU: 0.393
GUUGGAACGCCACGGUUGCCAGACCAUUCCUUCCAUCUAACUGCGUAUUACACAAGGGCAUCGAGUUCCAGGUGCCCCCCUUUUAGGACAGAGUUGUUUCCCAAUUCUGG: 0.252
AAGACUAGACCAAUUGUCAUGCUUGACACAACUGCUGUGGCUGGUUGGUGCUUUGUUUAUGGUAGUAGUUUUUCUGUAACACAGAAUAUAGGAUAAGAAAUAAGAAUAAA: 0.511
CCUGUGGCCGUGUGGAUGUCGGUAACAGUUGUAUAAAAUAAAUUCUAUUUAUCGCUAUUGUACCCAGGUUGGGCCUGGCUUUGUGUGAACCGUGGCCAGAUUGACCCCAG: 0.452
CACAGCUAGCUCUAUAUUCUCUCUGUGGAGUCCCAACACAUGGAGCUCAACUACACAAUAUAAGGCAGACCAACCAAUACAUGCCUGUCAUUCACGUGUCCUUUCAUGUG: 0.224
AAGUUUCUUUAAAAGUAUUGUUGUAUUUCAGCUGAACUCUUGUAUCUGCAGUCUUUUGUUAUUUCUGCAGGCUACACCCUUAAUUUGCAGAGGCCAUUUUGUUGUUUGUU: 0.517
